# Assay results pooled from the literature.
# Every numbered part comes from another study and shows a few of its results, in no order.
# Sequence of UniProt Q08881 (whole entry, looked up): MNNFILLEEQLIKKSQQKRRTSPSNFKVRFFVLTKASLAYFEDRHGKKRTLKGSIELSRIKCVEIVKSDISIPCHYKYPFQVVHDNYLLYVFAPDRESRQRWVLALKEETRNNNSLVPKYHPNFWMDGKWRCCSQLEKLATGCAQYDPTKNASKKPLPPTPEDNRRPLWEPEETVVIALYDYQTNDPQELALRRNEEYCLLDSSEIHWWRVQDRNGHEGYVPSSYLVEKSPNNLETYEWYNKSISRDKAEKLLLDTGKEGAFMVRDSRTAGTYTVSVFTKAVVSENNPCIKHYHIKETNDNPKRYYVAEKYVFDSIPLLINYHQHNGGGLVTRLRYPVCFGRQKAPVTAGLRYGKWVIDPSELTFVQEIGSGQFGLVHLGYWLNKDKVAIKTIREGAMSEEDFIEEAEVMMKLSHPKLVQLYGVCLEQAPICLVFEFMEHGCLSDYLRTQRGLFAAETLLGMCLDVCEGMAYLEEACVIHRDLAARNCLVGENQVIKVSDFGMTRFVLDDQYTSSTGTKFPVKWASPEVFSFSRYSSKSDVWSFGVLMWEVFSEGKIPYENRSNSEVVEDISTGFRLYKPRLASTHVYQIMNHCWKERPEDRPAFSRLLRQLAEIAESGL
# Sequence of UniProt O15197 (whole entry, looked up): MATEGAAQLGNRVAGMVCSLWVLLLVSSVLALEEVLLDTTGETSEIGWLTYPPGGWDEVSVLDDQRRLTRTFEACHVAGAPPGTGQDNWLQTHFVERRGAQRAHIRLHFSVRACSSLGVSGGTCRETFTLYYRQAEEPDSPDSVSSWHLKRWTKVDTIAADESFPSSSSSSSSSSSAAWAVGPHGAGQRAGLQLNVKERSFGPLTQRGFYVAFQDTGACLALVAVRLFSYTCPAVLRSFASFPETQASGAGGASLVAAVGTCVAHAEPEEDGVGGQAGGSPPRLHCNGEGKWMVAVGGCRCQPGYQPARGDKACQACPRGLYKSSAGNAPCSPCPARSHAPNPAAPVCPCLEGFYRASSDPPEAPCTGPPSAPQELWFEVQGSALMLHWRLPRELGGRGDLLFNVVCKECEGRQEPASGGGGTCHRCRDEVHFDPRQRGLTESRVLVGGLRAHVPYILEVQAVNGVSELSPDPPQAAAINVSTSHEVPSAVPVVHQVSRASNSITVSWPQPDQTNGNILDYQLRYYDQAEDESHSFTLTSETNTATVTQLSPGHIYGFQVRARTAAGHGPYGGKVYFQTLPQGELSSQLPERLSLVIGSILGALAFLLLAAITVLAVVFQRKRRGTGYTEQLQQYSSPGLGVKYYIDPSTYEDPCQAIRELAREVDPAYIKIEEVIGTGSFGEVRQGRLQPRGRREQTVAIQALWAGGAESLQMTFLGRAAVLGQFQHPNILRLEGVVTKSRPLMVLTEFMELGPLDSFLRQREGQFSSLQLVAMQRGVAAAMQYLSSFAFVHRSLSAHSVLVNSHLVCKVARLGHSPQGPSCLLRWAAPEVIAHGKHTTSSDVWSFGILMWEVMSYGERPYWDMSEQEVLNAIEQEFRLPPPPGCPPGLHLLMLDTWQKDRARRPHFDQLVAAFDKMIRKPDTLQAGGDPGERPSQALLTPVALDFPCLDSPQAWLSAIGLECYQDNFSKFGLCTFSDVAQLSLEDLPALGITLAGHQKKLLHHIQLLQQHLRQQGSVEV
# Sequence of UniProt Q6P3R8 (whole entry, looked up): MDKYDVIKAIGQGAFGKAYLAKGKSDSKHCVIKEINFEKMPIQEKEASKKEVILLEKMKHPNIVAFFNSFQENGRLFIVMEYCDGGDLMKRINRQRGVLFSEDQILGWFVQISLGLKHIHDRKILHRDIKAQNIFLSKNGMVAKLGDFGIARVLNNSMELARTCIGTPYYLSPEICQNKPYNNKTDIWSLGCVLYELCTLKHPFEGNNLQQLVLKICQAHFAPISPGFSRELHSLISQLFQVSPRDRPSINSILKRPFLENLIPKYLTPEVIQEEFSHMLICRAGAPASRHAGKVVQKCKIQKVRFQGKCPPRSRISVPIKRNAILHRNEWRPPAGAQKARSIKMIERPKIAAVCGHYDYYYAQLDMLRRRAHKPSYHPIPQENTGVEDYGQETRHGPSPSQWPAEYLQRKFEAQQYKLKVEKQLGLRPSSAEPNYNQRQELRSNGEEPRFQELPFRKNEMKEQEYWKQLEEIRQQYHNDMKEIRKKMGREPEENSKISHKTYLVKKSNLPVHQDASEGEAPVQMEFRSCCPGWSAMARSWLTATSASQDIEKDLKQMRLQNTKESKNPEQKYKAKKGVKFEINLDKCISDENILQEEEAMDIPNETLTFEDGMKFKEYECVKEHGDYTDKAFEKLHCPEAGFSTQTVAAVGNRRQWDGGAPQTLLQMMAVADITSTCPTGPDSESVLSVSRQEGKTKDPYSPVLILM
# Sequence of UniProt Q8TBX8 (whole entry, looked up): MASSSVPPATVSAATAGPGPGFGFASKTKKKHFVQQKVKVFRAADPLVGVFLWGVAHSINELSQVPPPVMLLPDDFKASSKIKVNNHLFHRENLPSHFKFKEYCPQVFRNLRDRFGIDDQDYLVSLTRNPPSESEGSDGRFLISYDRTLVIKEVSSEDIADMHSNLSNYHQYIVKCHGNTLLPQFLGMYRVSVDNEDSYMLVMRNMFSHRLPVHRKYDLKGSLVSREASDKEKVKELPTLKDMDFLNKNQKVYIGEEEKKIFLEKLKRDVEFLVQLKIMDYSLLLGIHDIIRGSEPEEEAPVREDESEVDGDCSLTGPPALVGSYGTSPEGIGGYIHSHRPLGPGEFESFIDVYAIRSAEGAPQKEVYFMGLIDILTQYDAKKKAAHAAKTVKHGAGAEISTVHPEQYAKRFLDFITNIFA

# Block 1
# Organism: Sarcocystis neurona
# Effect on: parasite growth
# Concentration: 10 µM
# Time: 96 h
# Notes: first screen
# Reference: untreated
Structure (SMILES),log2 fold change
COc1ccc2cc(CCC(C)=O)ccc2c1,1.88
CC(=O)OCC(=O)[C@@]12OC3(CCCC3)O[C@@H]1C[C@H]1[C@@H]3CCC4=CC(=O)C=C[C@]4(C)[C@@]3(F)[C@@H](O)C[C@@]12C,-0.18
C[C@@H]1C[C@H]2[C@@H]3C[C@H](F)C4=CC(=O)C(Cl)=C[C@]4(C)[C@@]3(F)[C@@H](O)C[C@]2(C)[C@@]1(O)C(=O)CO,-0.37
CC(=O)CCCCn1c(=O)c2c(ncn2C)n(C)c1=O,0.11
c1ccc(-c2ccc(C(c3ccccc3)n3ccnc3)cc2)cc1 (centres unmarked),-1.68
CCN1CCCC1CNC(=O)c1cc(S(=O)(=O)CC)c(N)cc1OC (centres unmarked),-0.0427
COC(=O)C[C@](O)(CCCC(C)(C)O)C(=O)O[C@@H]1C(OC)=C[C@]23CCCN2CCc2cc4c(cc2[C@H]13)OCO4,-9.19
COC(=O)C1=C(C)NC(C)=C(C(=O)OC(C)C)C1c1cccc2nonc12 (centres unmarked),0.21
NC(=O)N1c2ccccc2CC(=O)c2ccccc21,-1.51
c1cnc(N2CCN(Cc3ccc4c(c3)OCO4)CC2)nc1,0.25

# Block 2
# Species: mouse
# Sample: microsomes or S9
# Concentration: 2 µM
# Time: 0.5 h
Compound,remaining compound
c1ccc2c(c1)oc1c(-c3cn(C[C@H]4CCCN4)nn3)cccc12,44%
COc1cc(C)c2c(c1C=O)Oc1c(c(C)c(O)c3c1C(O)OC3=O)OC2=O (centres unmarked),> 99%
c1ccc2c(c1)CC(CNc1nccc(-n3cccn3)n1)CO2 (centres unmarked),0.0455%
CC(=O)CC(CC(C)C)n1nnc(-c2ccccc2)n1 (centres unmarked),0.0501%
COC(=O)c1sccc1NC(=O)c1cn(C)c(=O)cc1OC,< 1%
Cc1cc(C)c(S(=O)(=O)NC(CCC(=O)O)C(=O)O)cc1N(C)S(C)(=O)=O (centres unmarked),91.5%
Cc1noc(C)c1Cc1c(C(=O)N2CCC(n3c(C)cnc3C3CCC3)C2)noc1C (centres unmarked),1.86%

# Block 3
# Target: Tyrosine-protein kinase Srms (SRMS, Homo sapiens, UniProt Q9H3Y6)
# Sequence of UniProt Q9H3Y6 (whole entry, looked up): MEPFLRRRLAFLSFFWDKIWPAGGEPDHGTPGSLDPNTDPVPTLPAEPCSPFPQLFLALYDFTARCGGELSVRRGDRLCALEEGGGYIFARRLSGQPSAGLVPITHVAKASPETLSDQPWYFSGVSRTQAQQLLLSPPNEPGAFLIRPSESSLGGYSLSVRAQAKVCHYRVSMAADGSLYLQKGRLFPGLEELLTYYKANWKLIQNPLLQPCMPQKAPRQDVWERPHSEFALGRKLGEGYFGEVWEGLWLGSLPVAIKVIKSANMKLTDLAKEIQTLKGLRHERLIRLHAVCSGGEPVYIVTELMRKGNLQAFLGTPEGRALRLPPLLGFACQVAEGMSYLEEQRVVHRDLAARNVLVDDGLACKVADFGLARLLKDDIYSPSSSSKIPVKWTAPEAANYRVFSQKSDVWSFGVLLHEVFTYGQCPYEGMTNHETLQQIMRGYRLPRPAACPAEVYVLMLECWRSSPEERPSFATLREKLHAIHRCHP
# Effect on: enzyme activity
# Action: inhibitor
# Concentration: 0.5 µM
# Reference: control
Structure (SMILES),remaining activity
Cn1c2ccccc2c2c3c(c4c5ccccc5n(CCC#N)c4c21)CNC3=O,96.6%
Nc1[nH]nc2nc3ccccc3nc12,88.5%
Cc1cccc(-c2[nH]c(C(C)(C)C)nc2-c2ccc3c(c2)OCO3)n1,102%
Cc1ccc(NC(=O)c2ccc(CN3CCN(C)CC3)cc2)cc1Nc1nc(-c2cccnc2)cs1,92.9%
O=C1NC(=O)C(c2cn(CCCn3ccnc3)c3ccccc23)=C1Nc1ccccc1,103%
Nc1ncnc2n[nH]c(Nc3ccc(F)cc3)c12,104%
COc1cc2nccc(Oc3ccc(NC(=S)NC(=O)c4ccccc4C)cc3)c2cc1OC,111%
Oc1ccc(-c2nc(-c3ccncc3)c(-c3ccc(F)cc3)[nH]2)cc1,102%
CN(C)c1ccc(C=C2C(=O)Nc3ccccc32)cc1,97.9%
O=C(CCCc1ccc(-c2ccccc2F)cc1)Nc1ccc(O)cc1,101%
CCOC(=O)c1c(C)[nH]c(/C=C2\C(=O)Nc3ccccc32)c1C,104%
CO[C@H]1C[C@@H]2CC[C@@H](C)[C@@](O)(O2)C(=O)C(=O)N2CCCC[C@H]2C(=O)O[C@H]([C@H](C)C[C@@H]2CC[C@@H](O)[C@H](OC)C2)CC(=O)[C@H](C)/C=C(\C)[C@@H](O)[C@@H](OC)C(=O)[C@H](C)C[C@H](C)/C=C/C=C/C=C/1C,108%
C#Cc1cccc(Nc2ncnc3cc(OCCOC)c(OCCOC)cc23)c1,93.2%
CC(C)[C@H](CO)Nc1nc(Nc2cc(N)cc(Cl)c2)c2ncn(C(C)C)c2n1,96.8%
COc1cc2ncnc(Nc3ccc(Oc4ccccc4)cc3)c2cc1OC,31.6%
O=C(Nc1cccc(Nc2cc(Nc3cccc(C(F)(F)F)c3)ncn2)c1)C1CC1,95.2%

# Block 4
# SMILES: O=C(NCCCC1CCCCC1)c1ccc(CNC(=O)c2cnn(-c3ccccc3)c2C(F)(F)F)cc1
# Effect on: cell-free assay
# Method: competition with immobilised ligand
# Concentration: 0.1 µM
target,remaining binding
"Tyrosine-protein kinase ITK/TSK (ITK, Homo sapiens, UniProt Q08881)",100%
"Ephrin type-B receptor 6 (EPHB6, Homo sapiens, UniProt O15197)",100%
"Serine/threonine-protein kinase Nek5 (NEK5, Homo sapiens, UniProt Q6P3R8)",100%
"Epidermal growth factor receptor (EGFR, Homo sapiens, UniProt P00533)",100%
"Phosphatidylinositol 5-phosphate 4-kinase type-2 gamma (PIP4K2C, Homo sapiens, UniProt Q8TBX8)",99%
"Casein kinase I isoform gamma-3 (CSNK1G3, Homo sapiens, UniProt Q9Y6M4)",100%
"Proto-oncogene tyrosine-protein kinase Src (SRC, Homo sapiens, UniProt P12931)",100%
"Hepatocyte growth factor receptor (MET, Homo sapiens, UniProt P08581)",100%

# Repeated from above (block 1):
Structure (SMILES),log2 fold change
CCN1CCCC1CNC(=O)c1cc(S(=O)(=O)CC)c(N)cc1OC (centres unmarked),-0.0427
COC(=O)C[C@](O)(CCCC(C)(C)O)C(=O)O[C@@H]1C(OC)=C[C@]23CCCN2CCc2cc4c(cc2[C@H]13)OCO4,-9.19
COC(=O)C1=C(C)NC(C)=C(C(=O)OC(C)C)C1c1cccc2nonc12 (centres unmarked),0.21
NC(=O)N1c2ccccc2CC(=O)c2ccccc21,-1.51
